Measurements collected from several papers.
A part holds a random share of what one study measured. “And” joins repeats or separate records; there may be more than shown. pIC50: −log10 of the molar value.

Study 1 — effect on: binding; action: competitor; method: NanoBRET; cell line: HEK293; quantity: normalized BRET
SMILES: C#Cc1cccc2cc(O)cc(-c3ncc4c(N5CC6CCC(C5)N6)nc(OCC56CCCN5CCC6)nc4c3F)c12
Target: GTPase HRas (HRAS, Homo sapiens, UniProt P01112)
123 nM: 98.5% and 107% and 83.8% and 98.1%
508 pM: 98.5% and 83.4% and 107% and 101%
3.33 µM: 78.2% and 61.5% and 74.5% and 91.1%

Study 2 — effect on: cell growth or viability; method: ATP luminescence; time: 6 days; quantity: viability
Compound: Cc1ncsc1-c1ccc(C(CO)NC(=O)C2CC(O)CN2C(=O)C(C(C)C)n2cc(-c3ccc(COc4c(-c5c(C)c(F)cc6[nH]ncc56)c(C5CC5)cc5c(N6CC7CC6CN7)nc(OC6CCOCC6)nc45)cc3)nn2)cc1 (stereo not drawn)
A-375; 0.1 µM: 88.9% and 80.2% and 91.8% and 88.1%
PK-59; 0.1 µM: 14.1% and 13.5% and 11.2% and 13.1%
GP5d; 300 pM: 86.5% and 91.7% and 68.9% and 69.8%
GP5d; 0.3 µM: 38.1% and 32.7% and 25.5% and 29.8%
COLO 320; 1 µM: 77.7% and 104% and 88.5% and 77.5%
NCI-H1299; 30 nM: 128% and 114% and 96.9% and 101%
GP2d; 1 nM: 61.2% and 59.6% and 52.4% and 55.6%
HPAC; 300 pM: 54.1% and 68.5% and 88.2% and 70.8%
SW-403; 1 µM: 9.25% and 10% and 11.2% and 12.7%
PaTu 8902; 1 nM: 121% and 100% and 108% and 102%

Study 3 — effect on: enzyme activity; action: inhibitor; method: TR-FRET; quantity: pIC50
Target: E3 ubiquitin-protein ligase NEDD4 (Homo sapiens, UniProt P46934)
Construct (P46934 938-1319, limits assumed): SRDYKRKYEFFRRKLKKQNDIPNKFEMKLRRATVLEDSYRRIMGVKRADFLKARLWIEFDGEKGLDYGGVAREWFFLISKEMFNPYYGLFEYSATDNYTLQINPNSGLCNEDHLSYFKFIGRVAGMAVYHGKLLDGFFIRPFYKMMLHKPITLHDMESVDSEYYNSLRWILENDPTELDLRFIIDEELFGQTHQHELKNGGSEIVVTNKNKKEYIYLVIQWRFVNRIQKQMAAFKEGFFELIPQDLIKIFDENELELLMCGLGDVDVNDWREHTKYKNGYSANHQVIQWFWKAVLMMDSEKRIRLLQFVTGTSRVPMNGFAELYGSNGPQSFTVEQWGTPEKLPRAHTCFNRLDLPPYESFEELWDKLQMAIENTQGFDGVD
CCOC(=O)/C=C/CNCCCCN1c2ccccc2COc2ccc(Cl)cc21: 6.19
CCOC(=O)/C=C/CNCCCCN1c2ccccc2C(=O)N(C)c2ccc(Cl)cc21: 5.67
CNC(=O)/C=C/CNCCCCN1c2ccccc2CCc2ccc(Cl)cc21: 4.80
CCONC(=O)/C=C/CNCCCCN1c2ccccc2CCc2ccc(Cl)cc21: 6.24
CC(C)ONC(=O)/C=C/CNCCCCN1c2ccccc2CCc2ccc(Cl)cc21: 5.89

Study 4 — cell line: U-87 MG; tested at: concentration not given; baseline: DMSO; quantity: log2 fold change
SMILES: CCN1/C(=C/C=C2\CCCC(/C=C/C3=[N+](CC)c4ccccc4C3(C)C)=C2NCCCCCCCCN2CCC(Nc3nc4ccccc4n3Cc3ccc(F)cc3)CC2)C(C)(C)c2ccccc21
measured: YIPF4 mRNA: 0.898
measured: JUN mRNA: 0.922
measured: CDC25C mRNA: -1.98
measured: RARA mRNA: -0.898
measured: FKBP7 mRNA: -1.24
measured: C18orf54 mRNA: -2.03
measured: KLF9 mRNA: 1.19
measured: SGMS1 mRNA: 0.948
measured: UFM1 mRNA: 1.15
measured: STMN1 mRNA: -1.74
measured: PIGA mRNA: 1.78
measured: NUSAP1 mRNA: -1.86

Study 5 — quantity: inhibition
Structure (SMILES): CCN1C(=O)C(O)(C(=O)O)Oc2cc(F)ccc21 (stereo not drawn)
Oryza sativa; fresh weight; soil surface spray, 150 g ai/ha, 21 days, pre-emergence crop safety: 22.3% and 22% and 23.6%
Alopecurus aequalis; fresh weight; 150 g ai/ha, pre-emergence treatment: 48.2% and 40.8% and 41.5%
Arabidopsis thaliana; hypocotyl length; Col-0, seedlings; 50 µg/mL: 32.4%
Arabidopsis thaliana; hypocotyl length; Col-0, seedlings; 25 µg/mL: 28.4%
Triticum aestivum; fresh weight; soil surface spray, 150 g ai/ha, 21 days, pre-emergence crop safety: 0.8% and 0.7% and 0.9%
Arabidopsis thaliana; root length; Col-0; 3.13 µg/mL, 7 days, seed germination, dark: 10.8%
Arabidopsis thaliana; hypocotyl length; Col-0, seedlings; 3.125 µg/mL: 8.16%
Arabidopsis thaliana; root length; Col-0, seedlings; 100 µg/mL: 72.4%
Eclipta prostrata; fresh weight; 150 g ai/ha, post-emergence treatment: 45% and 44.4% and 48.7%
Arabidopsis thaliana; hypocotyl length; Col-0; 3.125 µg/mL, 7 days, seed germination, dark: 8.2%
Zea mays; fresh weight; soil surface spray, 150 g ai/ha, 21 days, pre-emergence crop safety: 5.5% and 5.4% and 4.1%
Arabidopsis thaliana; root length; Col-0; 6.25 µg/mL, 7 days, seed germination, dark: 17%
Alopecurus japonicus; fresh weight; 150 g ai/ha, pre-emergence treatment: 44.5% and 45.3% and 42.5%
Arabidopsis thaliana; hypocotyl length; Col-0, seedlings; 6.25 µg/mL: 15.3%

Study 6 — cell line: MDA-MB-231; effect on: cell viability; method: CellCounting-Lite; tested at: 74.07 nM; temperature: 37 °C; reading: higher = more viable cells; quantity: luminescence signal
CCn1cnc2c(NCc3nc4cc(Cl)c(Cl)cc4[nH]3)nc(N3CCN(C(=O)c4ccccn4)CC3)nc21: 24700 a.u. and 19100 a.u. and 18800 a.u.
CCn1cnc2c(NCc3nc4cc(Cl)c(Cl)cc4[nH]3)nc(N3CCN(C(=O)c4ccncc4)CC3)nc21: 82600 a.u. and 77500 a.u. and 58500 a.u.
CCn1cnc2c(NCc3nc4cc(Cl)c(Cl)cc4[nH]3)nc(N3CCC(NC(C)=O)CC3)nc21: 429000 a.u. and 493000 a.u. and 414000 a.u.
CCn1cnc2c(NCc3nc4cc(Cl)c(Cl)cc4[nH]3)nc(N3CCN(C(=O)CNC(C)=O)CC3)nc21: 205000 a.u. and 232000 a.u. and 244000 a.u.
CCn1cnc2c(NCc3nc4cc(Cl)c(Cl)cc4[nH]3)nc(N3CCN(C(=O)c4cccnc4)CC3)nc21: 26200 a.u. and 24900 a.u. and 27400 a.u.
Cn1cc(-n2cnc3c(NCc4nc5cc(Cl)c(Cl)cc5[nH]4)nc(N4CCNCC4)nc32)cn1: 240000 a.u. and 186000 a.u. and 224000 a.u.
CCn1cnc2c(NCc3nc4cc(Cl)c(Cl)cc4[nH]3)nc(N3CCn4ncnc4C3)nc21: 61100 a.u. and 31300 a.u. and 48400 a.u.
CC(=O)N1CCN(c2nc(NCc3nc4cc(Cl)c(Cl)cc4[nH]3)c3ncn(-c4cnn(C)c4)c3n2)CC1: 500000 a.u. and 448000 a.u. and 477000 a.u.
CCn1cnc2c(NCc3nc4cc(Cl)c(Cl)cc4[nH]3)nc(N3CCN(C(=O)[C@H](C)NC(C)=O)CC3)nc21: 309000 a.u. and 233000 a.u. and 291000 a.u.
CCn1cnc2c(NCc3nc4cc(Cl)c(Cl)cc4[nH]3)nc(N3CCN(c4ccccn4)CC3)nc21: 605000 a.u. and 580000 a.u. and 618000 a.u.
CCn1cnc2c(NCc3nc4cc(Cl)c(Cl)cc4[nH]3)nc(N3CCN(C(C)=O)CC3)nc21: 65800 a.u. and 73900 a.u. and 66300 a.u.
CCn1cnc2c(NCc3nc4cc(Cl)c(Cl)cc4[nH]3)nc(N3CCN(C(=O)c4ccccc4)CC3)nc21: 138000 a.u. and 124000 a.u. and 150000 a.u.
CCn1cnc2c(NCc3nc4cc(Cl)c(Cl)cc4[nH]3)nc(N3CCN(Cc4ccncc4)CC3)nc21: 199000 a.u. and 157000 a.u. and 189000 a.u.
CCn1cnc2c(NCc3nc4ccc(F)c(F)c4[nH]3)nc(N3CCn4ncnc4C3)nc21: 314000 a.u. and 300000 a.u. and 275000 a.u.
CC(=O)N1CCN(c2nc(NCc3nc4cc(Cl)c(Cl)cc4[nH]3)c3ncn(C(C)C)c3n2)CC1: 499000 a.u. and 515000 a.u. and 508000 a.u.
CCCCOc1nc(NCc2nc3cc(Cl)c(Cl)cc3[nH]2)c2ncn(CC)c2n1: 421000 a.u. and 562000 a.u. and 627000 a.u.
CCn1cnc2c(NCc3nc4cc(F)c(F)cc4[nH]3)nc(N3CCn4ncnc4C3)nc21: 398000 a.u. and 392000 a.u. and 430000 a.u.
CC(=O)N1CCN(c2nc(NCc3nc4cc(Cl)c(Cl)cc4[nH]3)c3ncn(C)c3n2)CC1: 301000 a.u. and 367000 a.u. and 228000 a.u.

Further values, each from its own experiment
PKMYT1: Membrane-associated tyrosine- and threonine-specific cdc2-inhibitory kinase (PKMYT1, Homo sapiens, UniProt Q99640)
Chain of UniProt Q99640 (whole entry, looked up): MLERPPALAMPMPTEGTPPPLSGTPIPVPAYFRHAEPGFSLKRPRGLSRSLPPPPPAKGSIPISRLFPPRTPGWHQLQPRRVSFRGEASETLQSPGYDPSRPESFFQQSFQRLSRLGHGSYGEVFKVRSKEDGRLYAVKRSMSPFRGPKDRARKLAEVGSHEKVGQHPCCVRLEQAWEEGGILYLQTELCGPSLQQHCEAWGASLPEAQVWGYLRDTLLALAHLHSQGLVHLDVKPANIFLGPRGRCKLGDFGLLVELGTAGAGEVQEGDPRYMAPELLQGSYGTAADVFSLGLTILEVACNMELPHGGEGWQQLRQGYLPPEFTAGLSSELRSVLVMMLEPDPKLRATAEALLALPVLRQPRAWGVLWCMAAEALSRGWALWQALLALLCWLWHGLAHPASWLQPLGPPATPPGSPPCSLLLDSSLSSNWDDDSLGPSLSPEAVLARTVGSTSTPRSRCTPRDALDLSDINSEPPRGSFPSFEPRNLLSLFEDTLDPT
Cc1ccc(O)c(C)c1-c1cnc2[nH]c(-c3cnc(N4CCC5(CC4)CC(N4CCN(c6ccc(N[C@H]7CCC(=O)NC7=O)cc6F)CC4)CO5)nc3)cc2c1C#N (single isomer, unassigned) — protein level (PKMYT1; immunoblotting; 0.1 µM, unit not given; baseline: untreated): 0.298 and 0.221 and 0.336
Cc1ccc(O)c(C)c1-c1cnc2[nH]c(-c3cnc(N4CCC5(CC4)CC(N4CCN(c6cc7c(cc6F)c(N6CCC(=O)NC6=O)nn7C)CC4)CO5)nc3)cc2c1C#N (racemic) — protein level (PKMYT1; degrader, automated immunoblot (Jess); 10 nM; baseline: GAPDH): 38.9%
Cc1ccc(O)c(C)c1-c1cnc2[nH]c(-c3cnc(N4CCC(CN5CCN(c6ccc7c(c6)C(=O)N(C6CCC(=O)NC6=O)C7=O)CC5)CC4)nc3)cc2c1C#N (stereo not drawn) — remaining protein level (PKMYT1; immunoblotting; HCC1569; 1 µM, 4 h): 20.9%
Cc1ncc(-c2cc3c(C#N)c(-c4c(C)ccc(O)c4C)cnc3[nH]2)cn1 — clearance (male Sprague-Dawley rat, plasma; intravenous): 63.6 mL/min/kg
